Assay results from different studies.
Every numbered part comes from another study and shows a few of its results, in no order. ± marks the error that the study gave. In brackets after ≈: the same amount, converted by molar mass.

Sample 1
Organism: SARS-CoV-2 Wuhan spike VSV pseudovirus
Effect on: pseudovirus entry
Tested at: concentration not given
Compound	inhibition [%]
CC(C)(C)OC(=O)N1CCN(c2ncnc3sccc23)CC1	38
CCOC(=O)C1(Cc2ccccc2C(F)(F)F)CCN(C(=O)Cc2nonc2C)CC1	44
Cc1nc(-c2ccc(C(=O)NCCCc3ccccc3)cc2)cs1	52
CCCc1nc(-c2cc3cccc(C)c3nc2NCCN2CCc3ccccc3C2)no1	39
Cc1ccc(Nc2cc(C)nc(N3CCN(C(=O)c4ccco4)CC3)n2)cc1	39
Cc1ccc(C(=O)NCCC2=CCCN(C3C=CCCC3)C2)cc1F (stereo not shown)	38
CC1=CC(C)(C)Nc2ccc(OC(=O)COc3ccccc3Cl)cc21	40
COc1ccc(C(=O)/C=C/Sc2nc3ccccc3o2)cc1	36
Cc1ccc2nc(-c3ccc(N)cc3)sc2c1	37
O=S(=O)(Nc1cccc2nc[nH]c12)c1ccc(Oc2ccccc2)cc1	39
CC(C)c1ccc(CN2CCCC3(CCN(C(=O)c4ccc5[nH]cnc5c4)C3)C2)cc1 (stereo not shown)	38
CCN1CCN(Cc2ccc(NC(=O)c3cc4c(C)nn(-c5ccc(Cl)cc5)c4s3)cc2)CC1	44
O=C(Oc1cccc2c1C(=O)C=CC2=O)c1ccccc1	36
CC(=O)c1cccc(NC(=O)c2cc3cc(N(C)S(=O)(=O)c4ccc(C)cc4)ccc3s2)c1	44
OC(c1ccccn1)C1CCN(c2ncnc3[nH]ccc23)CC1 (stereo not shown)	39
O=C(NCCN1CCCCC1)C1CCc2ncc(-c3ccc(F)cc3)n2C1 (stereo not shown)	40
O=S1(=O)C=C(Br)c2ccccc21	40
C/C=C/Cn1c(=O)c2c(nc3n(CCCC)c(C)cn23)n(C)c1=O	40
Cc1ccc(C(=O)N(CCCN)[C@@H](c2oc3cc(Cl)ccc3c(=O)c2Cc2ccccc2)C(C)C)cc1	43
COC(=O)c1sc(S(C)(=O)=O)c(C#N)c1-c1cc(C(C)(C)C)oc1C	38
CCS(=O)(=O)N(C)c1ccc2sc(C(=O)Nc3ccc(Cl)cc3C)cc2c1	43
CNS(=O)(=O)CCNCC1(O)CCCN(Cc2cccc(C)c2)C1=O (stereo not shown)	40
COc1cc(/C=C2/CCS(=O)(=O)c3ccccc3C2=O)cc(OC)c1	42
COc1cccc(Cn2ncc3ccc(C(=O)N4CCCC4)cc32)c1	37

Single results of other studies
Matrix protein 2 S31N: Matrix protein 2 (Influenza A virus, UniProt P0DOF5, S31N)
rep nsp12 RdRp: Replicase polyprotein 1ab, nsp12 RdRp (rep, Severe acute respiratory syndrome coronavirus 2, UniProt P0DTD1)
rep nsp14: Replicase polyprotein 1ab, nsp14 (rep, Severe acute respiratory syndrome coronavirus 2, UniProt P0DTD1)
rep papain-like protease: Replicase polyprotein 1ab, papain-like protease (rep, Severe acute respiratory syndrome coronavirus 2, UniProt P0DTD1)
Substance	target or system	assay	test system	setting	how to read	quantity	result
COc1nc(N)nc2c1ncn2[C@@H]1O[C@H](CO)[C@@H](O)[C@@H]1O	SARS-CoV-2	infectious virus yield	Vero C1008, Omicron BA.1	48 h	–	EC50	1670 ± 80 nM
CCC(CC)COC(=O)[C@H](C)N[P@](=O)(OC[C@H]1O[C@@](C#N)(c2ccc3c(N)ncnn23)[C@H](O)[C@@H]1O)Oc1ccccc1	SARS-CoV-2	viral replication	Vero, Gamma	–	–	EC50	100 ± 200 nM
OC[C@H]1O[C@@H](n2cnc3c(N[C@@H]4CCOC4)ncnc32)[C@H](O)[C@@H]1O	SARS-CoV-2	viral RNA copies	Vero C1008, Omicron BA.1	48 h	–	EC50	2930 ± 120 nM
CO[C@H]1/C=C/O[C@@]2(C)Oc3c(C)c(O)c4c(O)c(c(/C=N/N5CCN(C)CC5)c(O)c4c3C2=O)NC(=O)/C(C)=C\C=C\[C@H](C)[C@H](O)[C@@H](C)[C@@H](O)[C@@H](C)[C@H](OC(C)=O)[C@@H]1C	Mycobacterium tuberculosis	–	H37Rv mc2-6206 MmpL3 L567P	–	–	MIC80	0.076 µM (≈ 0.0625 µg/mL)
SLVAVTAHQSTIEEQAKTFLDKFN	SARS-CoV-2 spike RBD	peptide spot array	peptide	concentration not given	reference: wild-type ACE2 peptide	relative binding	3.73
CNCC12CC3CC(CC1C3)C2	Matrix protein 2 S31N	–	–	concentration not given, pH 5.5, cell-based	–	inhibition	0%
CCc1cc(=O)c2c(OCC3CO3)c3ccoc3c(OC)c2o1 (stereo not shown)	Mycobacterium tuberculosis	Alamar blue	22/22, SIRE and linezolid resistant	21 days, 37 °C	–	MIC	32 µg/mL
O=[N+]([O-])c1cn2c(n1)OC[C@@H](OCc1ccc(OC(F)(F)F)cc1)C2	Mycobacterium tuberculosis	–	H37Rv Pks13 resistant mutants	–	–	MIC	0.31 µM
CC(C)(C)[C@H](NC(=O)C(F)(F)F)C(=O)N1C[C@H]2[C@@H]([C@H]1C(=O)N[C@H](C#N)C[C@@H]1CCNC1=O)C2(C)C	SARS-CoV-2	viral replication, replicon	A5328V Mpro cleavage-site mutant	–	–	EC50	5 nM
CC1(C)[C@@H](O[C@H]2O[C@H](C(=O)O)[C@@H](O)[C@H](O)[C@H]2O[C@@H]2O[C@H](C(=O)O)[C@@H](O)[C@H](O)[C@H]2O)CC[C@]2(C)[C@H]3C(=O)C=C4[C@@H]5C[C@@](C)(C(=O)O)CC[C@]5(C)CC[C@@]4(C)[C@]3(C)CC[C@@H]12.N.N	rep nsp12 RdRp	binding, biolayer interferometry	–	concentration not given	–	BLI response	-0.01 nm
COc1c(N2C[C@@H]3CCCN[C@@H]3C2)c(F)cc2c(=O)c(C(=O)O)cn(C3CC3)c12	Mycobacterium tuberculosis	–	H37Rv Pks13 resistant mutants	–	–	MIC	0.13 µM
SLHAVTAAQSTIEEQAKTFLDKFN	SARS-CoV-2 spike RBD	peptide spot array	peptide	concentration not given	reference: wild-type ACE2 peptide	relative binding	3.07
CCCCCCC#Cc1cncc(-c2nnc(SCc3cc([N+](=O)[O-])cc([N+](=O)[O-])c3)n2C)c1	Mycobacterium tuberculosis	–	H37Rv mc2-6206 MmpL3 L567P	–	–	MIC80	4.2 µM (≈ 2.02 µg/mL)
C[C@H]1COc2c(N3CCN(C)CC3)c(F)cc3c(=O)c(C(=O)O)cn1c23	Mycobacterium tuberculosis	bacterial growth	fluoroquinolone-resistant	–	–	IC50	57 µM
CCc1cc(=O)c2c(OCC(O)CNC(C)(C)C)c3ccoc3c(OC)c2o1 (stereo not shown)	Mycobacterium tuberculosis	Alamar blue	22/22, SIRE and linezolid resistant	21 days, 37 °C	–	MIC	32 µg/mL
N#C[C@@]1(n2ccc(N)nc2=O)O[C@H](CO)[C@@H](O)[C@H]1O	SARS-CoV-2	–	Calu-3, Delta	–	–	EC50	300 ± 40 nM
CC(N)C12CC3CC(CC1C3)C2 (stereo not shown)	Matrix protein 2 S31N	–	–	concentration not given, pH 5.5, cell-based	–	inhibition	0%
O=C(NC1CCN(c2ncnc3[nH]cnc23)CC1)c1cccc(S(=O)(=O)N2CCCC2)c1	rep nsp14	NSP14 enzyme activity, inhibitor	–	12.5 µM	–	inhibition	82.7%
COc1ncc(-c2ccc3nccc(-c4ccnnc4)c3c2)cc1NS(=O)(=O)c1ccc(F)cc1F	rep nsp12 RdRp	binding, biolayer interferometry	–	concentration not given	–	BLI response	-0.02 nm
Cc1ccc(NS(=O)(=O)c2cccc(C(=O)NC3CCN(c4ncnc5[nH]cnc45)CC3)c2)cc1	rep nsp14	–	–	3.125 µM	–	inhibition	66%
CC(C)[C@H](NC(=O)c1ccc2ccccc2n1)C(=O)N[C@@H](CC(=O)O)C(=O)COc1c(F)cccc1F	rep papain-like protease	–	–	concentration not given, C111S mutant	reference: positive control	activity	21%
CN(C)CCn1c(C(=O)N2CCN(c3ccccc3Cl)CC2)c(C(c2ccc(O)cc2)c2ccc(O)cc2)c2ccccc21	SARS-CoV-2	viral replication	Huh-7-ACE2, USA-WA1/2020	24 h	–	EC50	410 nM
CCC(CC)[C@H](NC(C)=O)[C@@H]1[C@H](O)[C@@H](C(=O)O)C[C@H]1N=C(N)N	neuraminidase (Influenza B virus, UniProt A0A1S5RAG6, I221T)	–	–	–	–	IC50	0.0236 ± 0.0073 µM
CC(C)(C)[C@H](NC(=O)C(F)(F)F)C(=O)N1C[C@H]2[C@@H]([C@H]1C(=O)N[C@H](C#N)C[C@@H]1CCNC1=O)C2(C)C	SARS-CoV-2	viral replication	VeroE6/TMPRSS2, Omicron variants	0.3 µM	–	inhibition	100%
COC(=O)N[C@H](C(=O)N[C@@H](Cc1ccccc1)[C@@H](O)CN(Cc1ccc(-c2ccccn2)cc1)NC(=O)[C@@H](NC(=O)OC)C(C)(C)C)C(C)(C)C	rep papain-like protease	–	–	concentration not given, C111S mutant	reference: positive control	activity	29.4%

Some of these lines once more (single results of other studies):
Substance	target or system	assay	test system	setting	how to read	quantity	result
SLHAVTAAQSTIEEQAKTFLDKFN	SARS-CoV-2 spike RBD	peptide spot array	peptide	concentration not given	reference: wild-type ACE2 peptide	relative binding	3.07
CCCCCCC#Cc1cncc(-c2nnc(SCc3cc([N+](=O)[O-])cc([N+](=O)[O-])c3)n2C)c1	Mycobacterium tuberculosis	–	H37Rv mc2-6206 MmpL3 L567P	–	–	MIC80	4.2 µM (≈ 2.02 µg/mL)
C[C@H]1COc2c(N3CCN(C)CC3)c(F)cc3c(=O)c(C(=O)O)cn1c23	Mycobacterium tuberculosis	bacterial growth	fluoroquinolone-resistant	–	–	IC50	57 µM
CCc1cc(=O)c2c(OCC(O)CNC(C)(C)C)c3ccoc3c(OC)c2o1 (stereo not shown)	Mycobacterium tuberculosis	Alamar blue	22/22, SIRE and linezolid resistant	21 days, 37 °C	–	MIC	32 µg/mL
